Results gathered from unrelated publications.
A part holds a random share of what one study measured.

Series 1 — technique: protein-binding microarray; form: double-stranded DNA, one strand shown; sample: in vitro; tested at: 940 nM top; setting: 60-bp whole probe; with: salmon DNA 0.4 mg/ml; reference: random background probes; direction: higher = stronger binding; measurement: fitted relative affinity; constant ends, left off below: GCCTAGCAC … GTCTTGATTCGCTTGACGCTGCTG
Target: Interferon regulatory factor 5, full length, phosphomimetic (IRF5, Homo sapiens, UniProt Q13568-2, residues 1-514, S451D/S453D/S456D/S462D)
Sequence = GAAGAACTGAGACTGGAGACGTGCTAG; result = -0.426 z-score
Sequence = AACTCTTTGCAGATAAATACGTGCTAG; result = -0.0172 z-score
Sequence = CCTGTAATCCCAGCTACTCAGTGCTAG; result = 0.324 z-score
Sequence = GACGGACTGGGGACTTGGGACGTGCTA; result = -0.312 z-score
Sequence = GACGATCTCAGTATCGAGAAGTGCTAG; result = 1.78 z-score
Sequence = TTAGATATCAGACTGGATTCGTGCTAG; result = -0.214 z-score
Sequence = GACGGTATCGGGTATCGAGACGTGCTA; result = 4.93 z-score
Sequence = GGCGGTATCGACACTGGGGACGTGCTA; result = 3.8 z-score
Sequence = TCTGCTTTGCCTTCAGCCCGGTGCTAG; result = -0.29 z-score
Sequence = TTAGGTTTCGGGACTGGGTTAGTGCTA; result = 8.37 z-score
Sequence = TAAGGTCTCGGTCTCGGTTAGTGCTAG; result = 4.16 z-score

Series 2 — technique: aptamer microarray, sandwich; form: DNA with 2'F-ANA; sample: in vitro; tested at: 200 nM; with: Cy3 exosite-II aptamer, 400 nM; direction: higher = stronger binding; measurement: mean fluorescence intensity; sequence: GGTTGGTGTGGTTGG
Target: Prothrombin, mature alpha-thrombin (F2, Homo sapiens, UniProt P00734)
Setting: whole 15-mer aptamer, many near background
Modification = 2'F-ANA at 1 2 4 6 8 10 13; result = 55.1 a.u.
Modification = 2'F-ANA at 1 5 6 8 10 11; result = 67.1 a.u.
Modification = 2'F-ANA at 1 2 3 5 6 7 8 9 12 14; result = 50.6 a.u.
Modification = 2'F-ANA at 1 2 3 4 6 8 10 11 12; result = 66 a.u.
Modification = 2'F-ANA at 1 2 6 9 10 11 12 13 14; result = 50.1 a.u.
Modification = 2'F-ANA at 1 3 4 8 11 12 14 15; result = 97.2 a.u.
Modification = 2'F-ANA at 1 2 3 4 6 7 8 10 11 12 13 14 15; result = 64.1 a.u.
Modification = 2'F-ANA at 1 2 3 4 7 9 13 14 15; result = 58.1 a.u.
Modification = 2'F-ANA at 1 4 6 7 8 9 10 11 12; result = 55.6 a.u.
Modification = 2'F-ANA at 1 2 3 4 7 11 13 15; result = 126 a.u.
Modification = 2'F-ANA at 5 6 9 10 12 13 14; result = 56.7 a.u.
Modification = 2'F-ANA at 3 4 6 10 11 12 15; result = 271 a.u.
Modification = 2'F-ANA at 2 3 6 7 9; result = 656 a.u.

Series 3 — technique: Sort-seq; item: YFP reporter; sample: E. coli; setting: PhoQ-PhoP variant library; with: 10 µM Mg2+; reference: high Mg2+ state; direction: higher = stronger signaling; measurement: fold induction
Substance: PhoQ, residues 284 288 289 292 302 303 NLALSC
target = PhoP, residues 12 14 15 18 19 VGHWL (Escherichia coli, UniProt P23836); result = 1.69
target = PhoP, residues 12 14 15 18 19 LHHYF (Escherichia coli, UniProt P23836); result = 1.01
target = PhoP, residues 12 14 15 18 19 TPWTL (Escherichia coli, UniProt P23836); result = 1.72

Series 4 — technique: protein binding microarray; form: double-stranded DNA, one strand shown; sample: in vitro; tested at: not given; reference: not given; direction: higher = stronger binding; measurement: E-score
Target: Histone acetyltransferase KAT6A, both winged helices, GST fusion (KAT6A, Homo sapiens, UniProt Q92794, residues 1-181)
Setting: 8-mer, flanks averaged, mean of 2 arrays, mostly near background
Construct (chain): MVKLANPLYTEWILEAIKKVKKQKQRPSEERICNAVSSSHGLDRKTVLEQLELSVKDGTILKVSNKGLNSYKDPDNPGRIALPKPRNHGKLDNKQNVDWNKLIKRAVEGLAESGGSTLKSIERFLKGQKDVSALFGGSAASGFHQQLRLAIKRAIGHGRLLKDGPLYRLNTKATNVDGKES
Sequence = AATGGGGG; result = -0.25
Sequence = AGTGAGCC; result = -0.175
Sequence = ATTAGCTG; result = -0.182
Sequence = GCCGGCAC; result = 0.28
Sequence = AGGGATTC; result = -0.126
Sequence = AGACTGAG; result = -0.123
Sequence = CTATCAAG; result = -0.229
Sequence = CGAGGCAC; result = -0.0645
Sequence = AGTCGGAT; result = 0.134
Sequence = ATCGGACG; result = 0.0896
Sequence = CGGGTTAG; result = 0.188
Sequence = CATCAGCC; result = -0.0947
Sequence = AGAATAAC; result = -0.0494
Sequence = GGGACTCA; result = -0.0114
Sequence = CCTTTGAA; result = -0.076
Sequence = AGGGGAGA; result = -0.16
Sequence = AAATCCCA; result = -0.0855
Sequence = AGAAAATG; result = -0.145
Sequence = TGCACACA; result = -0.113
Sequence = TATAATCA; result = -0.124

Some of these lines once more (series 1):
Sequence = CCTGTAATCCCAGCTACTCAGTGCTAG; result = 0.324 z-score
Sequence = GACGGACTGGGGACTTGGGACGTGCTA; result = -0.312 z-score
Sequence = GACGATCTCAGTATCGAGAAGTGCTAG; result = 1.78 z-score
Sequence = TTAGATATCAGACTGGATTCGTGCTAG; result = -0.214 z-score
Sequence = GACGGTATCGGGTATCGAGACGTGCTA; result = 4.93 z-score
Sequence = GGCGGTATCGACACTGGGGACGTGCTA; result = 3.8 z-score
Sequence = TCTGCTTTGCCTTCAGCCCGGTGCTAG; result = -0.29 z-score
